Published values of several laboratories.
Compare with care: the assays were run in different laboratories. ± gives the spread as reported.
BCHE: Cholinesterase (BCHE, Homo sapiens, UniProt P06276)
Chain of UniProt P06276 (whole entry, looked up): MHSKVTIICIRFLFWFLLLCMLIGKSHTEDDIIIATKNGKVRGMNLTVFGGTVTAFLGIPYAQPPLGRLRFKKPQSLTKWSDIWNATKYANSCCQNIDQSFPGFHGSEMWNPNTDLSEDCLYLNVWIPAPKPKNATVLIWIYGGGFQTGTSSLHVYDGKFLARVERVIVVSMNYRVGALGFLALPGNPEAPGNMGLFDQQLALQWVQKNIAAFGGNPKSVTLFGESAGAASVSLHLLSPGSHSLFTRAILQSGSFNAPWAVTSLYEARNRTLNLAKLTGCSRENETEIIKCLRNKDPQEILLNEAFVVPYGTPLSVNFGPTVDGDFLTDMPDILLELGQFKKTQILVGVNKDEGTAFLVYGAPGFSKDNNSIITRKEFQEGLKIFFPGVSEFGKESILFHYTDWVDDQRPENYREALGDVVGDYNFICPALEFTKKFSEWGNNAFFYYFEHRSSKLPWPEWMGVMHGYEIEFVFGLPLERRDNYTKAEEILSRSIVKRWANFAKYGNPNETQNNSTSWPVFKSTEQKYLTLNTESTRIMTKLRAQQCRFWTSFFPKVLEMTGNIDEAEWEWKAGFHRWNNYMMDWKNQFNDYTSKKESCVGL
Mycosin-1: Mycosin-1 (Mycolicibacterium thermoresistibile, UniProt G7CDQ2)
Chain of UniProt Q99985 (whole entry, looked up): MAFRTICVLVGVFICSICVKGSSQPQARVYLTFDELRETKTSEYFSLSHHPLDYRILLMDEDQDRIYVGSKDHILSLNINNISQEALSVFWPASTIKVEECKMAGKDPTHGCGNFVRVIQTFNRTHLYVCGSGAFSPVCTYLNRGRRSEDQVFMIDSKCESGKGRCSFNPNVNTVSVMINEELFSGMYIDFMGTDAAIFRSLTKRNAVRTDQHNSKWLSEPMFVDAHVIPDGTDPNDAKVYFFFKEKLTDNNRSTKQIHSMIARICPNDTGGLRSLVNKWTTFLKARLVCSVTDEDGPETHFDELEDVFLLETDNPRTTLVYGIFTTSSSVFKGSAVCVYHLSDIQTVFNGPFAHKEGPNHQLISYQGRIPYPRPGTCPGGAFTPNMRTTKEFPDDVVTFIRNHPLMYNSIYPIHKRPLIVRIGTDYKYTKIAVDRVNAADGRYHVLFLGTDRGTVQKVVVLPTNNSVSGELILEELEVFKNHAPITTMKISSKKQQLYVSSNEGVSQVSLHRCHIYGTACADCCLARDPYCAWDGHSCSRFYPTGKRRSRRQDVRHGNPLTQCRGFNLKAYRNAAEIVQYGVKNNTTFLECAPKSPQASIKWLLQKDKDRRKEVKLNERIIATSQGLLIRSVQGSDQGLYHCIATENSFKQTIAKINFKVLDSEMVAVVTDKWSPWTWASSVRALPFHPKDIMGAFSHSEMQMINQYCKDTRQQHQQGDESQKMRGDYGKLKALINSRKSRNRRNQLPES
Chain of UniProt P31749 (whole entry, looked up): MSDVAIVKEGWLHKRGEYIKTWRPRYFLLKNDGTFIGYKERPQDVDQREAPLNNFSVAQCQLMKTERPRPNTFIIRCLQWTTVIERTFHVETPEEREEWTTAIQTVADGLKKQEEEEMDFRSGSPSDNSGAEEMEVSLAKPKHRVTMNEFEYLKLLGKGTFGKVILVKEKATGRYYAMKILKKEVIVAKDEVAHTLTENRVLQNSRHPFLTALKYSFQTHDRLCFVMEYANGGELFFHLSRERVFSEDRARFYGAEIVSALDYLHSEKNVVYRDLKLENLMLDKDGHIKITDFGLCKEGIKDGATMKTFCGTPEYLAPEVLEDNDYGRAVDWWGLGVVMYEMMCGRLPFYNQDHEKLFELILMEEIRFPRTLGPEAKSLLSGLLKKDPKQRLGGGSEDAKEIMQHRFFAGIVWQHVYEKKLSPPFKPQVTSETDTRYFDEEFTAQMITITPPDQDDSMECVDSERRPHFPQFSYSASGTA
Chain of UniProt P14091 (whole entry, looked up): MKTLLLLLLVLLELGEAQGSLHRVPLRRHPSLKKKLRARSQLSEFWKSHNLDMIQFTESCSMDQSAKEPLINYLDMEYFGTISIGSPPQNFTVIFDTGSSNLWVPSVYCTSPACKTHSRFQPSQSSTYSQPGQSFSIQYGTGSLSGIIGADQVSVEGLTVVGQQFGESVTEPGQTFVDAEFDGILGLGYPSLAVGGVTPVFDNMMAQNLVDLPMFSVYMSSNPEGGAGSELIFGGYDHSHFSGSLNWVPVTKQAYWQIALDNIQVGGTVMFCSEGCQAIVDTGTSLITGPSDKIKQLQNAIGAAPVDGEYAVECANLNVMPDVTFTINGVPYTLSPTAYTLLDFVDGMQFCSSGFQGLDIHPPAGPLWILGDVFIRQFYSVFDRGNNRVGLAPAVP
Chain of UniProt P35354 (whole entry, looked up): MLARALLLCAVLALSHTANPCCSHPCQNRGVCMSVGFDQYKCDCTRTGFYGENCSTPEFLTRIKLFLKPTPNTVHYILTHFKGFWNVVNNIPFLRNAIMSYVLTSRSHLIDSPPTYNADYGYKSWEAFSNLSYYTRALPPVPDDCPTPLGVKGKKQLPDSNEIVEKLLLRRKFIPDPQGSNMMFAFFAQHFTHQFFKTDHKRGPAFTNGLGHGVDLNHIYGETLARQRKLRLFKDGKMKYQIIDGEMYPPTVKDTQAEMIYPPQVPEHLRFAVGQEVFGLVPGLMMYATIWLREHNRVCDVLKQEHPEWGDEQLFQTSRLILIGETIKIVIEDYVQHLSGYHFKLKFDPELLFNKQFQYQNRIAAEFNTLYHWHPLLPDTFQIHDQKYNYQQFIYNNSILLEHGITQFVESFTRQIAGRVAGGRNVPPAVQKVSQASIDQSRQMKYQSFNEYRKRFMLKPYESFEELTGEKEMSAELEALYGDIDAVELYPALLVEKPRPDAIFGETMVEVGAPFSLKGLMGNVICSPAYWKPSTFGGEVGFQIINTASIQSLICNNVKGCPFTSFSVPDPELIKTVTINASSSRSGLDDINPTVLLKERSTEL
Chain of UniProt P07237 (whole entry, looked up): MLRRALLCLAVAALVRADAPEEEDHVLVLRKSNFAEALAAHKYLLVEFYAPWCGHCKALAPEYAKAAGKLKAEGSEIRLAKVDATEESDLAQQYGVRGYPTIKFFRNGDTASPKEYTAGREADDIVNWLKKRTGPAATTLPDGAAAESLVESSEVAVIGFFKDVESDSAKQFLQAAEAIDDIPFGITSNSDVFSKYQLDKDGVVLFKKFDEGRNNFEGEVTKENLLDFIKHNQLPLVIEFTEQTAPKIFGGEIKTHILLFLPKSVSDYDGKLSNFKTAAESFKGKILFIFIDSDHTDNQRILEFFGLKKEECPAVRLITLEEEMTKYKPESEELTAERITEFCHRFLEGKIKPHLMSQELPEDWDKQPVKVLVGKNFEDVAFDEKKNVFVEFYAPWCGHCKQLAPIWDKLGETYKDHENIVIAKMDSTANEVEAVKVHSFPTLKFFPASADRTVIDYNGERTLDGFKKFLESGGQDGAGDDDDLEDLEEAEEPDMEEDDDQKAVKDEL
Chain of UniProt Q9NRG4 (whole entry, looked up): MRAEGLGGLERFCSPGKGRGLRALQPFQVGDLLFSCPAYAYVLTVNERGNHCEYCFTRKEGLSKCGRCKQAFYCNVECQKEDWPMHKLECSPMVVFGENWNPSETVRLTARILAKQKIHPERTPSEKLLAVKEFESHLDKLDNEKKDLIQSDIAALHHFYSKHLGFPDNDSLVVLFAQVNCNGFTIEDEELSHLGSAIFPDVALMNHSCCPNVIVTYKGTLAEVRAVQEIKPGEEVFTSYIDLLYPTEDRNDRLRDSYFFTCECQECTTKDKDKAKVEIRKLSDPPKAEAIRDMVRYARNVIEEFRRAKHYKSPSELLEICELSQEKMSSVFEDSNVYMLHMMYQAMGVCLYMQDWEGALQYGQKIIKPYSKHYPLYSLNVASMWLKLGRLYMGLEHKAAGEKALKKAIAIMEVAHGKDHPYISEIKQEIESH
Chain of UniProt P32381 (whole entry, looked up): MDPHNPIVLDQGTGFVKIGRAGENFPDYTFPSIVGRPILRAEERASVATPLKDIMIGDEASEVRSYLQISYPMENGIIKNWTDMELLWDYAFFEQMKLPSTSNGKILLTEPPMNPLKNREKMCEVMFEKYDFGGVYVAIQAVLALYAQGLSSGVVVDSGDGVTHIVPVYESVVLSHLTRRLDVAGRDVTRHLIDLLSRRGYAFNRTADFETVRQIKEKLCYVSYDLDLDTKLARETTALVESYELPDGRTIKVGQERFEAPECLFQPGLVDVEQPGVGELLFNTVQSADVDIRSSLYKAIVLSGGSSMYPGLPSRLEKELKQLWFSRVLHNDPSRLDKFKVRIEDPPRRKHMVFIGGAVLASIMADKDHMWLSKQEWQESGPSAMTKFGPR
Chain of UniProt Q8C167 (whole entry, looked up): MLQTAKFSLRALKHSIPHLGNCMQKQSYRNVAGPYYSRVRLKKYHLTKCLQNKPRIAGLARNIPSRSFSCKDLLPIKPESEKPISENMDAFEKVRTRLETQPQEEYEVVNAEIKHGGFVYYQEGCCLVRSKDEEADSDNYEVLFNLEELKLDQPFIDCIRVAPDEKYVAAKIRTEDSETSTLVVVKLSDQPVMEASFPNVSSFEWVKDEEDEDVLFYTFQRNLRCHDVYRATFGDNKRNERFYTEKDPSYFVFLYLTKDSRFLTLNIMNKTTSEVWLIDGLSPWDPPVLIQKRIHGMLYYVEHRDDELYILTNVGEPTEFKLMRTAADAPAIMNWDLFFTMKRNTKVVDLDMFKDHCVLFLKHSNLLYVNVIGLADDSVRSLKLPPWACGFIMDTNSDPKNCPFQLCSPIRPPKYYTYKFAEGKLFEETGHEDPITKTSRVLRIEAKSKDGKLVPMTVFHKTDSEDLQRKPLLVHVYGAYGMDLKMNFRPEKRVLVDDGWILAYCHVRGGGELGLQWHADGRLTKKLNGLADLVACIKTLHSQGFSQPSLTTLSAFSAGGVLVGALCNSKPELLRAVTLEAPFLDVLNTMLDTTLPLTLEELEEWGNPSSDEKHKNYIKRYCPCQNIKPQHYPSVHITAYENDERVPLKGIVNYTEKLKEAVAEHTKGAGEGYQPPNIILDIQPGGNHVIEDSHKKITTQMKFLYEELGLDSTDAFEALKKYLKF
Chain of UniProt P97266 (whole entry, looked up): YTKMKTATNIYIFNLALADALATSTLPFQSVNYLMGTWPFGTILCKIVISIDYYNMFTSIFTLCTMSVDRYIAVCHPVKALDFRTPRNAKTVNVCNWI

SMILES | tested on | test | test system | conditions | how to read | quantity | value
O=S(=O)(CCc1cn(-c2cnc3ccccc3c2)nn1)N1CCc2ccccc2C1 | BCHE | enzyme activity, inhibitor | – | 20 µM | – | inhibition | 18.6%
N=C(Nc1ccc(NC(=N)N[N+](=O)[O-])cc1)N[N+](=O)[O-] | Mycosin-1 | protease activity, inhibitor, quenched fluorescent peptide | – | 150 µM, together with: 20 µM fluorogenic peptide substrate | reference: DMSO control | inhibition | 54.7%
CC(C)C[C@@H]1NC(=O)[C@H](C(C)C)NC(=O)[C@H](C)NC(=O)[C@H](Cc2ccc(O)cc2)NC(=O)[C@H](CCC(N)=O)NC(=O)[C@H](CC(C)C)NC(=O)[C@@H](Cc2ccc(O)cc2)NC(=O)CSC[C@@H](C(N)=O)NC(=O)[C@H](CCC(=O)O)NC(=O)[C@H](CCCNC(=N)N)NC(=O)[C@H](CCCNC(=N)N)NC(=O)[C@H](CCCCN)NC(=O)[C@H](Cc2c[nH]cn2)NC(=O)[C@H](CCCNC(=N)N)NC1=O | Cathepsin E (CTSE, Homo sapiens, UniProt P14091) | enzyme activity | – | 10 µM | – | inhibition | inactive
Cc1cc(C(=O)Nc2nc3cccc(C)c3n2[C@H]2CCCCN(C(=O)/C=C/CN(C)C)C2)ccn1 | Trypanosoma brucei CLK1 C215A | enzyme activity, ADP-Glo | – | concentration not given | – | inhibition | no inhibition
C[C@@](O)(C(F)F)[C@H](NC(=O)c1ccc(C#CC#CC2CC2)cc1)C(=O)NO | Stromelysin-1 (MMP3, Homo sapiens, UniProt P08254) | enzyme activity, inhibitor | – | 30 µM | – | inhibition | ≤ 30%
O=C(O)/C=C/c1cc(O)cc(O)c1 | BCHE | enzyme activity, inhibitor, Ellman | – | 1000 µg/mL | – | inhibition | 82.1%
CC(=O)NC(Cc1ccc(Br)c(Cl)c1)C(=O)N[C@@H](C)C(=O)N1CCC[C@H]1C(=O)N1CCC[C@H]1C(=O)N[C@@H](CCC(=O)O)C(=O)N[C@@H](Cc1c[nH]cn1)C(=O)N[C@@H](CO)C(=O)N[C@H](C(=O)N[C@@H](C)C(N)=O)[C@@H](C)OP(=O)(O)O (stereo partly drawn) | RPS6KA1 (Homo sapiens, UniProt Q15418) | enzyme activity, inhibitor | – | 10 µM | – | inhibition | 0.32%
N=C(N)NN=C1C=C2CC(=NNC(=N)N)C=C2C1 | Mycosin-1 | enzyme activity | – | 150 µM | reference: DMSO control | inhibition | 73%
S=C(NCc1ccccn1)NCc1ccccn1 | BCHE | enzyme activity, inhibitor, Ellman | – | 250 µg/mL | – | inhibition | 59.1%
CCN(Cc1ccccc1)C(=O)CCc1nc(CN2CCN(C(=O)Cc3ccc(OC)c(OC)c3)CC2)no1 | Sodium channel protein type 11 subunit alpha (Scn11a, Rattus norvegicus, UniProt O88457) | ion current, inhibitor, whole-cell patch clamp | rat DRG neurons | 10 µM | – | inhibition | 46.8 ± 7.03%
CC(NC(=O)C=Cc1ccco1)C(=O)NC(Cc1ccccc1)C(N)=O (stereo not drawn) | Mycosin-1 | enzyme activity | – | 150 µM | reference: DMSO control | inhibition | 61%
C/C(=N\OCCCN1CCCCC1)c1ccc(C(F)(F)F)cc1 | SLC6A4 (Homo sapiens, UniProt P31645) | serotonin uptake, inhibitor | – | 10 µM | – | inhibition | > 50%
O=c1c(O)c(-c2cc(O)ccc2O)oc2cc(O)cc(O)c12 | BCHE | enzyme activity, inhibitor, Ellman | – | 250 µg/mL | – | inhibition | 62.1%
C1N2CN3CN1CP(C2)C3.CC(C)OC(=O)C(n1cccn1)n1cccn1.F[P-](F)(F)(F)(F)F.[Cu+] | P4HB (Homo sapiens, UniProt P07237) | enzyme activity, inhibitor | – | 50 µM | – | inhibition | ~80%
O=C1CSC(c2cccc(Br)c2)N1c1cc(Cl)ccc1O (stereo not drawn) | ARP2/ARP3 (Saccharomyces cerevisiae, UniProt P32381+P47117) | actin polymerization, pyrenyl-actin | – | concentration not given | – | inhibition | no inhibition
CC[C@H](C)[C@@H]1NC(=O)[C@@H]2CCCN2C(=O)[C@@H]2CCCN2C(=O)[C@H]([C@@H](C)CC)NC(=O)[C@H](CO)NC(=O)[C@H](CCCCN)NC(=O)[C@H]([C@@H](C)O)NC(=O)[C@@H]2CSSC[C@H](NC1=O)C(=O)N[C@@H](Cc1ccccc1)C(=O)N1CCC[C@H]1C(=O)N[C@@H](CC(=O)O)C(=O)NCC(=O)N[C@@H](CCCNC(=N)N)C(=O)N2 | Lymphocyte function-associated antigen 3, with CD2 (CD58, Homo sapiens, UniProt P19256) | – | Jurkat | 5 µM | – | inhibition | < 20%
COc1cc(OC)cc(C(=O)/C=C/c2ccc(N(C)CCO)cc2)c1 | PTGS2 (Homo sapiens, UniProt P35354) | enzyme activity, inhibitor, ELISA | – | 40 µg/mL | – | inhibition | 80.7 to 92.5%
O=C(Nc1ccc(Br)cc1)c1cc(Br)cc(Br)c1O | Semaphorin-3C, with neuropilin-1 (SEMA3C, Homo sapiens, UniProt Q99985) | SEMA3C binding, inhibitor | – | 25 µM, together with: SEMA3C | reference: DMSO | inhibition | > 50%
NCC(CCC(N)C(=O)O)CC1OC(n2cnc3c(N)ncnc32)C(O)C1O (stereo not drawn) | SMYD2 (Homo sapiens, UniProt Q9NRG4) | enzyme activity, inhibitor | – | 20 µM | – | inhibition | > 50%
CCS(=O)(=O)N1CCN(CC(=O)Nc2ccc(/C=C/C(=O)c3ccc(OC)c(OC)c3)cc2)CC1 | BCHE | enzyme activity | – | 1000 µM | – | inhibition | 30.4 ± 0.823%
O=C(O)/C=C/c1ccc(O)cc1 | BCHE | enzyme activity, inhibitor, Ellman | – | 250 µg/mL | – | inhibition | 64.9%
O=C(O)CCCC(=O)O | BCHE | enzyme activity, inhibitor, Ellman | – | 1000 µg/mL | – | inhibition | 78.9%
CC(C)CC(O)(CC(C)C)c1cn(C(=O)N2CCCC2)nn1 | Prolyl endopeptidase-like (Prepl, Mus musculus, UniProt Q8C167) | enzyme activity | mouse, brain | i.p., 0.8 mg/kg, apparent, not considered true | – | inhibition | 50 to 60%
CN[C@](C)(C[18F])C(=O)O | DU-145 tumour model | – | host not given, bone | 30 min, tumour-bearing | – | tracer uptake | 2.2 %ID/g
Cc1ccc(N2CC3CCC(C2)N3C)cc1C(=O)N[C@H](C)c1cc(-c2cnn(C)c2)nc2ccccc12 | USP15 (Homo sapiens, UniProt Q9Y4E8) | enzyme activity | – | concentration not given | – | inhibition | no inhibition
CC(C)C[C@H](NC(=O)[C@@H]1CCCN1C(=O)[C@H]1NC(=O)[C@H](Cc2ccccc2)NC(=O)CNC(=O)[C@H](NC(=O)[C@@H](N)Cc2ccc(O)cc2)C(C)(C)SSC1(C)C)C(=O)N[C@@H](Cc1c[nH]c2ccccc12)C(=O)NCc1cc(C(F)(F)F)cc(C(F)(F)F)c1 | OPRM1 (Cavia porcellus, UniProt P97266) | electrically stimulated contraction, agonist | guinea pig isolated ileum | 1 µM | – | inhibition | 26%
O=C(C[P+]([Au-][Cl])(c1ccccc1)c1ccccc1)[O][Ti+2][O]C(=O)C[P+]([Au-][Cl])(c1ccccc1)c1ccccc1.c1cc[cH-]c1.c1cc[cH-]c1 | AKT1 (Homo sapiens, UniProt P31749) | kinase activity | – | 10 µM | – | inhibition | ≥ 50%

For quick reference, copied from above:
SMILES | tested on | test | test system | conditions | how to read | quantity | value
C/C(=N\OCCCN1CCCCC1)c1ccc(C(F)(F)F)cc1 | SLC6A4 (Homo sapiens, UniProt P31645) | serotonin uptake, inhibitor | – | 10 µM | – | inhibition | > 50%
O=C1CSC(c2cccc(Br)c2)N1c1cc(Cl)ccc1O (stereo not drawn) | ARP2/ARP3 (Saccharomyces cerevisiae, UniProt P32381+P47117) | actin polymerization, pyrenyl-actin | – | concentration not given | – | inhibition | no inhibition
